Results from different studies.
Compare with care: the assays were run in different laboratories. Several values in a cell are separate wells, animals, samples, runs or records. Numbers after ± are the reported error.

SMILES = O[C@H]1[C@H](O)[C@@H](O)[C@H](O)[C@@H](O)[C@H]1O; test = binding, MIDAS equilibrium dialysis LC-MS; test system = A2AR-BRIL thermostabilized; setting = concentration not given; scale = baseline: no-protein control; measurement = log2 fold change; result = -0.682
SMILES = COc1cc(Nc2ncc3c(n2)-c2ccc(Cl)cc2C(c2c(F)cccc2OC)=NC3)ccc1C(=O)O; test system = mouse, KT-10 Wilms tumour xenograft; setting = 5.2 mg/kg; scale = direction not given; measurement = median response score; result = 2
SMILES = C=CCn1c(=O)c2cnc(Nc3ccc(N4CCN(C)CC4)cc3)nc2n1-c1ccc2c(n1)[C@@](O)(CC)CC2; test system = SW-403 xenograft, BALB/c nude mice; setting = oral, 80 mg/kg once daily x 28, day 27; measurement = tumour volume difference; result = 816 ± 49.7 mm3
SMILES = COC[C@@H](c1ccc(C(F)(F)F)cc1)N1CCN(C2(C)CCN(C(=O)c3c(C)ncnc3C)CC2)C[C@@H]1C; test system = HIV-1 infected patients, plasma; setting = 15 mg, week 16, with optimized background regimen; scale = baseline: baseline; measurement = change in HIV-1 RNA; result = -1.65 log10 copies/mL
SMILES = CCOCc1nc(O)c(-c2nnc(Cc3ccc(Cl)cn3)o2)c(O)c1-c1c(OC)cccc1OC; test system = renal hypertensive rat; setting = po, 0.1 mg/kg twice daily, peak exposure; scale = baseline: vehicle; measurement = stroke volume change; result = 22%
SMILES = N#Cc1ccc2c(c1)[C@H]1CCCN(C(=O)c3ccc4[nH]cnc4c3)[C@H]1C2; test system = T2DM patients with overweight or obesity, plasma; setting = oral, 160 mg, day 15 (360 h), multiple dosing, mean; measurement = fasting plasma insulin; result = 15.1 mU/L
SMILES = O=C(O)CNC(=O)Cc1ccccc1; test system = ventricular cardiomyocytes, C57BL/6 mouse; setting = dose not given, 0.34 s; measurement = sarcomere length; result = 1.72 µm
SMILES = Cc1cc(Nc2cc3ncccc3c(N[C@@H]3C[C@H]4CC[C@@H](C3)N4CCC#N)n2)n[nH]1; test system = moderate-severe ulcerative colitis patients; setting = 270 mg, day 28, Modified Mayo; scale = baseline: baseline, direction not given; measurement = change in endoscopic subscore; result = -0.1
SMILES = NC(=O)c1cnc2[nH]ccc2c1N[C@@H]1[C@@H]2CC3C[C@H]1C[C@@](O)(C3)C2; test = CD4+ effector memory T cells, flow cytometry; test system = Japanese humans, peripheral blood; setting = 200 mg single dose; scale = baseline: baseline; measurement = percent change; result = -0.33%
SMILES = O=C(O)CNC(=O)Cc1ccc(O)cc1; test = binding, MIDAS equilibrium dialysis LC-MS; test system = A2AR-BRIL thermostabilized; setting = concentration not given; scale = baseline: no-protein control; measurement = log2 fold change; result = 0.554
SMILES = Cc1coc([C@H]2C[C@H]3[C@@H](CF)SC(N)=N[C@@]3(c3ccc(F)cc3F)CO2)n1; test = item: Aβx-40; test system = wild-type mouse, brain; setting = subcutaneous, 80 mg/kg, 14 h; measurement = brain Aβ40 level; result = 2 ng/g
SMILES = O=C1CCc2ccc(OCCCCN3CCN(c4cccc(Cl)c4Cl)CC3)cc2N1; test = stop or switch frequency; test system = human patients, CYP2D6 ultrarapid metabolizers; setting = dose not given, 3 months, genetic phenotype only; measurement = treatment discontinuation; result = 33%
SMILES = CC(C)NCC(O)c1ccc(O)c(O)c1 (centres unmarked); test system = ventricular cardiomyocytes, C57BL/6 mouse; setting = dose not given, 0.8 s; measurement = sarcomere length; result = 1.64 µm
SMILES = CN(C(=O)n1cnc(-c2ccc[n+]([O-])c2)c1)C1CCCCC1; test = item: OEA; test system = human, plasma; setting = 1.25 mg single dose; measurement = AUC(0-t); result = 527 ng·h/mL
SMILES = N#Cc1ccn2c(-c3ccncc3)c(-c3ccc(F)cc3)nc2c1; test = kinase binding, competitor, MIB/MS competition, item: YCK2; test system = Candida albicans cell lysate; setting = 100 nM; scale = baseline: DMSO; measurement = log2 fold change; result = -1.24
SMILES = O=P(O)(O)C(Cl)(Cl)P(=O)(O)O; test system = mouse, subarachnoid haemorrhage, hippocampal fissure; setting = dose not given, day 7, compound-treated; scale = baseline: total area; measurement = GFAP-positive area; result = 7.79% and 6.64%
SMILES = NCC(=O)Nc1cncc(-c2nn3c(=O)cc(N4CCNCC4)nc3s2)c1; test = ADP-induced platelet aggregation, light transmission aggregometry; test system = human, stable CAD on aspirin, ex vivo platelets; setting = subcutaneous, 0.04 mg/kg, 30 min post-dose, median value, with: ADP 20 µM; measurement = inhibition; result = 45%
SMILES = CC[C@@H](C)[C@H](N)C(=O)O; test = binding, MIDAS equilibrium dialysis LC-MS; test system = A2AR-BRIL thermostabilized; setting = concentration not given; scale = baseline: no-protein control; measurement = log2 fold change; result = -0.128
SMILES = Cc1cc([C@H]2C[C@H]3[C@@H](CF)SC(N)=N[C@@]3(c3ccc(F)cc3F)CO2)on1; test = item: Aβx-40; test system = wild-type mouse, brain; setting = subcutaneous, 100 mg/kg, 9 h; measurement = brain Aβ40 level; result = 2.24 ng/g
SMILES = CC(CN)C(=O)O (centres unmarked); test = binding, MIDAS equilibrium dialysis LC-MS; test system = A2AR-BRIL thermostabilized; setting = concentration not given; scale = baseline: no-protein control; measurement = log2 fold change; result = -0.0641
SMILES = CC(Cc1ccc(O)c(O)c1)C(C)Cc1ccc(O)c(O)c1 (centres unmarked); test = DPPH; test system = methanol; setting = concentration not given, 60 min; measurement = DPPH radical scavenging; result = 87.35 ± 0.05%
SMILES = Nc1nc2c(c(=O)[nH]1)N=C(CNc1ccc(C(=O)N[C@@H](CCC(=O)O)C(=O)O)cc1)CN2; test = binding, MIDAS equilibrium dialysis LC-MS; test system = A2AR-BRIL thermostabilized; setting = concentration not given; scale = baseline: no-protein control; measurement = log2 fold change; result = 1.34
SMILES = C[C@H](Oc1ccc(Br)cc1-c1ccon1)C(=O)O; test = response latency; test system = human, tibialis anterior muscle; setting = 50 mg, 30 Hz+30 s; measurement = difference from placebo; result = -0.199%
SMILES = Cc1ncc(C[n+]2csc(CCO[P@](=O)(O)OP(=O)(O)O)c2C)c(N)n1; test = binding, MIDAS equilibrium dialysis LC-MS; test system = A2AR-BRIL thermostabilized; setting = concentration not given; scale = baseline: no-protein control; measurement = log2 fold change; result = -0.292
SMILES = Oc1ccc(Br)cc1C=NCCN1CCOCC1; test = FRAP; setting = 200 µM; measurement = ferric reducing power; result = 44.6%
SMILES = O=C(O)CCCCCCCCCCC(=O)O; test = binding, MIDAS equilibrium dialysis LC-MS; test system = A2AR-BRIL thermostabilized; setting = concentration not given; scale = baseline: no-protein control; measurement = log2 fold change; result = -0.36
SMILES = O[C@H]1CCCN[C@@H]1CCCn1cnc2c(Cl)c(Cl)ccc21; test = ELISA, item: Pro-C6; test system = healthy human volunteers, serum; setting = 100 mg, day 1, multiple ascending dose; measurement = maximum reduction; result = 11.6%
SMILES = Nc1nc2c(ncn2[C@@H]2O[C@H](COP(=O)(O)OP(=O)(O)OP(=O)(O)O)[C@@H](O)[C@H]2O)c(=O)[nH]1; test = binding, MIDAS equilibrium dialysis LC-MS; test system = A2AR-BRIL thermostabilized; setting = concentration not given; scale = baseline: no-protein control; measurement = log2 fold change; result = -0.886
SMILES = OC(CCN1CCCCC1)(c1ccccc1)C1CC2C=CC1C2 (centres unmarked); test = resting-state EEG; test system = healthy elderly humans; setting = oral, 4 mg, eyes open, LS mean; scale = baseline: baseline; measurement = change, beta power, EEG O1-Pz; result = -7.8%

For quick reference, copied from above:
SMILES = O=C(O)CNC(=O)Cc1ccc(O)cc1; test = binding, MIDAS equilibrium dialysis LC-MS; test system = A2AR-BRIL thermostabilized; setting = concentration not given; scale = baseline: no-protein control; measurement = log2 fold change; result = 0.554
SMILES = Cc1coc([C@H]2C[C@H]3[C@@H](CF)SC(N)=N[C@@]3(c3ccc(F)cc3F)CO2)n1; test = item: Aβx-40; test system = wild-type mouse, brain; setting = subcutaneous, 80 mg/kg, 14 h; measurement = brain Aβ40 level; result = 2 ng/g
SMILES = O=C1CCc2ccc(OCCCCN3CCN(c4cccc(Cl)c4Cl)CC3)cc2N1; test = stop or switch frequency; test system = human patients, CYP2D6 ultrarapid metabolizers; setting = dose not given, 3 months, genetic phenotype only; measurement = treatment discontinuation; result = 33%
